Measurements gathered from unrelated publications.
Protocols differ between the studies behind these lines. “And” joins repeats or separate records; there may be more than shown. ± gives the spread as reported.
ADORA3: Adenosine receptor A3 (ADORA3, Homo sapiens, UniProt P0DMS8)
Sequence of UniProt P0DMS8 (whole entry, looked up): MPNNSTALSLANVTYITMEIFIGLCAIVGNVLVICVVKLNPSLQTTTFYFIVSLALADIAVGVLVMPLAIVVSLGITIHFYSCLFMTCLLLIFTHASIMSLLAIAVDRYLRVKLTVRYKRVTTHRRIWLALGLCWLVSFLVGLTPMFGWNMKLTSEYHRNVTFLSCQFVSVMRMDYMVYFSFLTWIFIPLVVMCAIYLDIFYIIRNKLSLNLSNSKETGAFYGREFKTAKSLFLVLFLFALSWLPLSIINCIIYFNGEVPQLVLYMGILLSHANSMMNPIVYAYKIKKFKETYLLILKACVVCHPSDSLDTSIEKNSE
NT5E membrane-bound form: 5'-nucleotidase, membrane-bound form (NT5E, Homo sapiens, UniProt P21589)
Sequence of UniProt P21589 (whole entry, looked up): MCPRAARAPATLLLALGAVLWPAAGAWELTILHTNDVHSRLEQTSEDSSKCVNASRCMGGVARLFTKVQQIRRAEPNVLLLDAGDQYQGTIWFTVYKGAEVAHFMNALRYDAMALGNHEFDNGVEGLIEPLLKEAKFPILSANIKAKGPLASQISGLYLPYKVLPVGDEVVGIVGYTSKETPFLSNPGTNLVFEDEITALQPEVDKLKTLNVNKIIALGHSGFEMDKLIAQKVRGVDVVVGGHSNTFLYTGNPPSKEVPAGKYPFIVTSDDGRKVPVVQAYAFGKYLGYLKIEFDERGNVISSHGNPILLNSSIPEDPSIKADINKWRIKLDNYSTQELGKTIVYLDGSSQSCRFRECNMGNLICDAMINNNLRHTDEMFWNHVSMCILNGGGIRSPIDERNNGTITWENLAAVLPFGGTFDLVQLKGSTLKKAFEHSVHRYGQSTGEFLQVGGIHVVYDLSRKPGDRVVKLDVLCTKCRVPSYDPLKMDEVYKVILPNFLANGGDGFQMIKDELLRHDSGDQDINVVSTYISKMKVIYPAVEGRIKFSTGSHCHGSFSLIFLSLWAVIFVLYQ
HTR6: 5-hydroxytryptamine receptor 6 (HTR6, Homo sapiens, UniProt P50406)
Sequence of UniProt P50406 (whole entry, looked up): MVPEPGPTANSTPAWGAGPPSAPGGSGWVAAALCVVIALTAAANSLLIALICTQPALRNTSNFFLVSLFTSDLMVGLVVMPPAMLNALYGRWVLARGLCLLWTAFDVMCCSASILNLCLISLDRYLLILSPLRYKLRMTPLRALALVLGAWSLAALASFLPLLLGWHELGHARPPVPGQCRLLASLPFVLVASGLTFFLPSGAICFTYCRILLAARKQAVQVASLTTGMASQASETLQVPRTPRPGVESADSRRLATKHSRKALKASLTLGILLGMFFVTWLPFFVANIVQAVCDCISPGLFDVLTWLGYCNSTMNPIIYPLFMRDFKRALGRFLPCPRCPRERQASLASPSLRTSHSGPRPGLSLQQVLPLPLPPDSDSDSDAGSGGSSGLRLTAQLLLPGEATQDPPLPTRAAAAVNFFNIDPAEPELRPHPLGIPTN
SIRT5: NAD-dependent protein deacylase sirtuin-5, mitochondrial (SIRT5, Homo sapiens, UniProt Q9NXA8)
Sequence of UniProt Q9NXA8 (whole entry, looked up): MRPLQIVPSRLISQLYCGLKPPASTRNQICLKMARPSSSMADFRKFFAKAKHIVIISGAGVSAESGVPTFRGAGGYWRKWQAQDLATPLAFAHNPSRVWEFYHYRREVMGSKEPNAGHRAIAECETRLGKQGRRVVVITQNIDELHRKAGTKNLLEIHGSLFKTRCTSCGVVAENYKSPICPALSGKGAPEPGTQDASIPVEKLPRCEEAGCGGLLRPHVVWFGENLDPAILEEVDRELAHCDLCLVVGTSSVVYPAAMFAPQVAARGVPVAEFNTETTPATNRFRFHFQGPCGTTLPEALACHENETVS
CSNK1E: Casein kinase I isoform epsilon (CSNK1E, Homo sapiens, UniProt P49674)
Sequence of UniProt P49674 (whole entry, looked up): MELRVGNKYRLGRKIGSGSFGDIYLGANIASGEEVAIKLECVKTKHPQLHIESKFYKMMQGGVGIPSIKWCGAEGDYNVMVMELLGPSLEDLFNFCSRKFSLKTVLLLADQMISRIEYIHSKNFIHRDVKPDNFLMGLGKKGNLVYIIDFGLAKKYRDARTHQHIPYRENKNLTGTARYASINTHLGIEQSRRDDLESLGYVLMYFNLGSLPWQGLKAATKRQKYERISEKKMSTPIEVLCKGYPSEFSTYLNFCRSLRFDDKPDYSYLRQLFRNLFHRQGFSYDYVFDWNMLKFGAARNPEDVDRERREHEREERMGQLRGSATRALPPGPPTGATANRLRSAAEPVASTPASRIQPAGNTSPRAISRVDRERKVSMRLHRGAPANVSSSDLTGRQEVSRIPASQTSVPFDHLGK
HRH2: Histamine H2 receptor (HRH2, Homo sapiens, UniProt P25021)
Sequence of UniProt P25021 (whole entry, looked up): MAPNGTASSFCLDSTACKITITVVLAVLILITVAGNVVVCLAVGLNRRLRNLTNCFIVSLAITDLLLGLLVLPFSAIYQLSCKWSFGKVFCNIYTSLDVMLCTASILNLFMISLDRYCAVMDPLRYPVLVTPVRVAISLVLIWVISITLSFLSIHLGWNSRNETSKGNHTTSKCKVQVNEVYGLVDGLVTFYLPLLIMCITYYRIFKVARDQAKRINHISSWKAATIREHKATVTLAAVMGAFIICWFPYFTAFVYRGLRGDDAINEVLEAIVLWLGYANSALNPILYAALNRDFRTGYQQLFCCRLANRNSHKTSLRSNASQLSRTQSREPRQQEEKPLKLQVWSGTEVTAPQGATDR
CECR2: Chromatin remodeling regulator CECR2 (CECR2, Homo sapiens, UniProt Q9BXF3)
Sequence of UniProt P63252 (whole entry, looked up): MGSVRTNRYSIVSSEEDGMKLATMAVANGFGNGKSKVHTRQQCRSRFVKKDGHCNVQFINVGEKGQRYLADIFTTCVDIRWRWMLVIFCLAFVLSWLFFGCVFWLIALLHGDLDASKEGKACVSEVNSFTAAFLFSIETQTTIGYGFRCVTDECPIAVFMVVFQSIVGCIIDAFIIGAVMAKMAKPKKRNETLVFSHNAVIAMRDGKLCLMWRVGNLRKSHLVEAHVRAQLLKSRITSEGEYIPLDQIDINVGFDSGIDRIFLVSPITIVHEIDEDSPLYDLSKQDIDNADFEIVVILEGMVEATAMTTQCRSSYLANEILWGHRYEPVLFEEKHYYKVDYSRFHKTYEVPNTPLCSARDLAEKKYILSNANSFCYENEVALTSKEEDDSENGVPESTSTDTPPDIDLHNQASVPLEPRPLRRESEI
Sequence of UniProt Q8IWT6 (whole entry, unmodified, looked up): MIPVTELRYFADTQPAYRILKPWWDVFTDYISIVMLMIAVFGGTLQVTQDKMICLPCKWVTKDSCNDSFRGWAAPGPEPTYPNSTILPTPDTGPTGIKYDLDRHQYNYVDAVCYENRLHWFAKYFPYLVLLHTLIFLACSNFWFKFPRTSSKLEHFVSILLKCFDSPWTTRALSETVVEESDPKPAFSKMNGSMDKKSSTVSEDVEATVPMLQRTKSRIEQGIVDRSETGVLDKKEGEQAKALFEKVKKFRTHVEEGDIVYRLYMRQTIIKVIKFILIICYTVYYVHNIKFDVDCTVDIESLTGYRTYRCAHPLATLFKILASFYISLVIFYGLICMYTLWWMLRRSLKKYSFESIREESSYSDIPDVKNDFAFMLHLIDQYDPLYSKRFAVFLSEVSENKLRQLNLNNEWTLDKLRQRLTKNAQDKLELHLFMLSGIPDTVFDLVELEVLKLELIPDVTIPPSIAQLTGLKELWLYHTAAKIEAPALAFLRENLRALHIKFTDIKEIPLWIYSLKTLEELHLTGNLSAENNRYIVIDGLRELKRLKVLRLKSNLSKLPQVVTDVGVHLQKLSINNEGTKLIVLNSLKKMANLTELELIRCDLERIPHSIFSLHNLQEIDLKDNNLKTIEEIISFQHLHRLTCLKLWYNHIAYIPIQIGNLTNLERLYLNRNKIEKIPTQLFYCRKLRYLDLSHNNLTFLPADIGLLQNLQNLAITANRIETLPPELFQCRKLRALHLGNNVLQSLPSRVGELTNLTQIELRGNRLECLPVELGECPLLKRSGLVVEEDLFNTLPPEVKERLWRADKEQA
Sequence of UniProt P43088 (whole entry, looked up): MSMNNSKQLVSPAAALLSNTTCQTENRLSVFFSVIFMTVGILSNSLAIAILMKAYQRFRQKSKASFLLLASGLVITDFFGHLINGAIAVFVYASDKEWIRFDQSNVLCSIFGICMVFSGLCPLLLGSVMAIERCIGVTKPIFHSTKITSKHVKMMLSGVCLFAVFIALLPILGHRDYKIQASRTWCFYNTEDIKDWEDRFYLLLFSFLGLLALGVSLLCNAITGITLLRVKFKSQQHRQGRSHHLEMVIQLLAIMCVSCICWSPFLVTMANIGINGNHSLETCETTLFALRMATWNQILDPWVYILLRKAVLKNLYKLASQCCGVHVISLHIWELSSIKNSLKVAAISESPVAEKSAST
Sequence of UniProt P14867 (whole entry, looked up): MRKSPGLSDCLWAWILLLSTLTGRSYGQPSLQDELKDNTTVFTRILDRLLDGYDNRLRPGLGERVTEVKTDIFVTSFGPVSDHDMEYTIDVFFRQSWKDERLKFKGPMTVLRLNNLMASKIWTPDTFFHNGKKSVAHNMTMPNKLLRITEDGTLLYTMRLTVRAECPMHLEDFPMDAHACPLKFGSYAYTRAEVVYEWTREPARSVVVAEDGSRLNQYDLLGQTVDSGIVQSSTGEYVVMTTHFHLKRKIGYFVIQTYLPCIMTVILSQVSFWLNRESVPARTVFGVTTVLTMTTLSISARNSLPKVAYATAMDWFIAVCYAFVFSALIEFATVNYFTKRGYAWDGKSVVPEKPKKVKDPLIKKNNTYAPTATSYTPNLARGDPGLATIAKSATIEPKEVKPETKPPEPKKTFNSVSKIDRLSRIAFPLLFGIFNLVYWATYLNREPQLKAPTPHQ
Sequence of UniProt Q9H813 (whole entry, looked up): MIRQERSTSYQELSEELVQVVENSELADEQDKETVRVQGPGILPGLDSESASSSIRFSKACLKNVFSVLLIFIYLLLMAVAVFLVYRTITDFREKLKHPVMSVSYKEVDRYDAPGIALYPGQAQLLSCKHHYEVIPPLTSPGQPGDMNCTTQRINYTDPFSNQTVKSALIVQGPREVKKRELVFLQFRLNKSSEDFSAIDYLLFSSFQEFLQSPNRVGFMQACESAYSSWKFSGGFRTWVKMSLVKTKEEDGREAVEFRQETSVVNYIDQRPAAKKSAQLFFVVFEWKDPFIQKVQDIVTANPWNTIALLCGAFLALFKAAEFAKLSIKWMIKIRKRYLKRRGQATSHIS

Compound = Cn1cc(-c2cnc3ccc(NC(=O)Nc4ccc(F)c(Br)c4)cc3n2)cn1; target = Mitogen-activated protein kinase kinase kinase 7 (MAP3K7, Homo sapiens, UniProt O43318); assay = kinase binding, KiNativ profiling, item: Lys2 peptide; test system = PANC-1 lysate; setting = 2.5 µM; inhibition = 7.7%
Compound = CN1CCN(c2cc(-c3ccncc3)c(-c3ccc4ccccc4c3)nn2)CC1; target = Prostaglandin F2-alpha receptor (PTGFR, Homo sapiens, UniProt P43088); assay = antagonist, FLIPR; setting = 10 µM; inhibition = 3.1%
Compound = COc1cc(Cl)c(C(=O)N[C@@H](CN[C@H]2CC[C@@H](N)CC2)Cc2ccc(C#N)cc2)cc1-c1ccc(CN[C@H](C)c2ccc(C)cc2)o1; target = ADORA3; assay = agonist response, antagonist; test system = human cells; setting = 10 µM, A3 antagonist; inhibition = -10%
Compound = CCOC(=O)c1ccc(NC(=O)CSc2nc(-c3ccccc3)cc(C(F)(F)F)c2C#N)cc1; target = NT5E membrane-bound form; assay = CD73 activity, inhibitor, malachite green phosphate; test system = MDA-MB-231; setting = 100 µM, added: 200 µM AMP; inhibition = 23 ± 5%
Compound = O=C(NO)c1ccc(CN2CCCCc3ccccc32)c(F)c1; target = Kappa-type opioid receptor (OPRK1, Homo sapiens, UniProt P41145); assay = radioligand binding, radioligand displacement; setting = 10 µM, mean of replicates; inhibition = 17.1%
Compound = Cc1ccnc(C)c1OC[C@H]1CN(CCN2CCc3ccccc32)CCO1; target = HTR6; assay = radioligand binding; setting = concentration not given, added: [3H]LSD; inhibition = 3%
Compound = O=C(C#Cc1cn(Cc2ccccc2)c(=O)[nH]c1=O)NCc1ccc(F)cc1; target = Collagenase 3 (MMP13, Homo sapiens, UniProt P45452); setting = 6.5 µM; inhibition = 51 ± 2%
Compound = Cc1ccc2nc(NC(=O)c3ccccc3)[nH]c2c1; target = Adenosine receptor A2a (ADORA2A, Homo sapiens, UniProt P29274); setting = 30 µM; inhibition = 17 ± 1%
Compound = O=C(NC1CCC1)[C@H](Cc1c[nH]c2ccccc12)NC(=O)[C@H](CCCCNC(=S)NCCNc1c(O)c(=O)c1=O)NS(=O)(=O)c1cccc(F)c1; target = SIRT5; assay = enzyme activity, inhibitor; setting = 100 µM; inhibition = < 0%
Compound = Cc1cc(C)c(C#N)c(SC=CC(=O)Nc2ccon2)n1; target = NT5E membrane-bound form; assay = CD73 activity, inhibitor, malachite green phosphate; test system = MDA-MB-231; setting = 100 µM, added: 200 µM AMP; inhibition = 16 ± 2%
Compound = Cc1ncccc1OC[C@H]1CN(CCN2CCc3ccccc32)CCO1; target = HTR6; assay = radioligand binding; setting = concentration not given, added: [3H]LSD; inhibition = 10.7%
Compound = CC[C@@H]1[C@H](F)C(=O)N[C@@H]1COc1nccc2cc(C(N)=O)c(OC)cc12; target = Serine/threonine-protein kinase ULK1 (ULK1, Homo sapiens, UniProt O75385); assay = ATP-site probe binding, ActivX profiling; test system = THP-1 cell lysate; setting = 0.04 mM, Lys1 site; inhibition = 4.1%
Compound = O=C(Nc1cccc2c(=O)cc(-c3nnn[nH]3)oc12)c1ccc(OCCCCc2ccccc2)cc1; target = LRRC8A/LRRC8C (Homo sapiens, UniProt Q8IWT6+Q8TDW0, Y124F/Y126F); assay = ion current, whole-cell patch clamp; test system = HCT LRRC8-/- cells; setting = 0.3 µM, -100 mV, Y124F/Y126F heteromers; inhibition = -8.96% and 5.22% and 26.9% and -8.53% and -12.8% and -10.2%
Compound = Fc1ccc(-c2c(-c3ccncc3)ncn2-c2ccc(-c3ccccc3)cc2)cc1; target = CSNK1E; assay = inhibitor; setting = 1 µM; inhibition = 74%
Compound = CCS(=O)(=O)c1nc(S(=O)(=O)c2ccccc2Cl)c(N2CCN(C)C(=O)[C@H]2C)s1; target = HRH2; setting = 10 µM; inhibition = 1.06%
Compound = Cc1ccc(OC[C@H]2CN(CCN3CCc4ccccc43)CCO2)cn1; target = HTR6; assay = radioligand binding; setting = concentration not given, added: [3H]LSD; inhibition = 10.9%
Compound = COc1nc(NCc2cn(-c3ccc(C(=O)Nc4ccc(C(F)(F)F)cc4)cc3)nn2)nc(OC)n1; target = Stromelysin-2 (Homo sapiens, UniProt P09238); assay = inhibitor; setting = 0.1 µM; inhibition = 13.1 ± 0.411%
Compound = Oc1ccc(-c2nc(-c3ccncc3)c(-c3ccc(F)cc3)[nH]2)cc1; target = CSNK1E; assay = inhibitor; setting = 1 µM; inhibition = 63%
Compound = CN1CCC[C@H]1c1cccnc1 (racemic); target = neuronal nicotinic acetylcholine receptor (rat); assay = radioligand binding; test system = rat brain; setting = 1×10 µM; inhibition = 98.8%
Compound = COc1cc(-c2cc(C(C)=O)n3ccccc23)c(OC)cc1Cn1ccnc1; target = CECR2; setting = 1 µM; inhibition = 99.6%
Compound = Cc1cc(-c2ccccc2)nc(SCC(=O)Nc2cccnc2)c1C#N; target = NT5E membrane-bound form; assay = CD73 activity, inhibitor, malachite green phosphate; test system = MDA-MB-231; setting = 100 µM, added: 200 µM AMP; inhibition = -72 ± 3%
Compound = O=C1NC(=O)C2(CCCCc3ccccc32)N1 (centres unmarked); target = GABA-A receptor alpha-1/beta-3, with gamma-2 subunit (GABRA1/GABRB3, Homo sapiens, UniProt P14867+P28472); assay = reversal, anesthetic-enhanced desensitization; setting = concentration not given; inhibition = 69%
Compound = CN(C(=O)n1cnc(-c2ccc[n+]([O-])c2)c1)C1CCCCC1; target = Glutamate receptor ionotropic, NMDA 1, glycine site (Grin1, Rattus norvegicus, UniProt P35439); assay = binding; setting = 10 µM, glycine site, strychnine-insensitive; inhibition = 9.94%
Compound = Cc1cc(C(F)(F)F)c2c(N)c(C(=O)Nc3nccs3)sc2n1; target = NT5E membrane-bound form; assay = CD73 activity, inhibitor, malachite green phosphate; test system = MDA-MB-231; setting = 100 µM, added: 200 µM AMP; inhibition = 9 ± 6%
Compound = Clc1cccc(OC[C@@H]2CN(CCN3CCc4ccccc43)CCO2)c1; target = HTR6; assay = radioligand binding; setting = concentration not given, added: [3H]LSD; inhibition = 29%
Compound = CCN1/C(=C/C(C)=O)Sc2ccc(F)cc21; target = HRH2; setting = 10 µM; inhibition = 1.39%
Compound = Cc1cccc(NC(=O)c2sc3nc(-c4ccccc4)cc(C(F)(F)F)c3c2N)n1; target = NT5E membrane-bound form; assay = CD73 activity, inhibitor, malachite green phosphate; test system = MDA-MB-231; setting = 100 µM, added: 200 µM AMP; inhibition = 20 ± 8%
Compound = COc1cccc(F)c1Cn1cnc(-c2ccncc2)c1-c1ccc(F)cc1; target = CSNK1E; assay = inhibitor; setting = 1 µM; inhibition = 31%
Compound = O=c1[nH]c(-c2ccccc2)cnc1-c1ccccc1; target = ADORA3; assay = [3H]NECA binding; test system = HeLa-A3 membranes; setting = 10 µM; inhibition = 50 ± 6%
Compound = NC/C(=C\F)COc1cccc(Cn2c(=S)[nH]c(=O)c3[nH]cnc32)c1; target = Amine oxidase copper-containing 3 (Canis lupus familiaris, UniProt A0A8I3MYY3); assay = inhibitor; test system = dog adipose tissue; setting = 0.0041 µM; inhibition = 75%
Compound = Cc1cccc(-c2nc(CN(C)C)[nH]c2-c2ccncc2)c1; target = CSNK1E; assay = kinase activity; setting = 1 µM; inhibition = 29%
Compound = CCCCNC(=S)NCCCC[C@H](NS(=O)(=O)c1cccc(F)c1)C(=O)N[C@@H](Cc1c[nH]c2ccccc12)C(=O)NC1CCC1; target = SIRT5; assay = enzyme activity, inhibitor; setting = 100 µM; inhibition = < 0%
Compound = CNc1cc(Oc2cc(C(=O)Nc3cc(N4CCN(C)CC4)cc(C(F)(F)F)c3)ccc2C)ncn1; target = STE20-like serine/threonine-protein kinase (SLK, Homo sapiens, UniProt Q9H2G2); assay = probe labelling, KiNativ; test system = Huh-7, live cells; setting = 1 µM, Lys2 site; inhibition = -41.1%
Compound = Cc1cc2c(cc1N1C(=O)c3cccc4c(CCCO)ccc(c34)C1=O)n(C)c(=O)n2C (racemic); target = CECR2; assay = binding, BROMOscan binding; setting = 100 nM; inhibition = 74%
Compound = COc1ccc2c(c1OC)CN1CCc3cc4c(cc3C1=C2)OCO4; target = Hematopoietic prostaglandin D synthase (HPGDS, Homo sapiens, UniProt O60760); assay = enzyme activity, inhibitor, fluorescence polarisation; setting = 100 µM; inhibition = 100%
Compound = COC(=O)c1ccc(NC(=O)CSc2nc(-c3ccccc3)cc(C(F)(F)F)c2C#N)cc1; target = NT5E membrane-bound form; assay = CD73 activity, inhibitor, malachite green phosphate; test system = MDA-MB-231; setting = 100 µM, added: 200 µM AMP; inhibition = -69 ± 16%
Compound = CCN(Cc1ccccc1C(F)(F)F)C(=O)C1CCN(S(=O)(=O)c2ccc3[nH]ncc3c2)CC1; target = rat L-type calcium channel; assay = radioligand binding; setting = 10 µM, dihydropyridine site; inhibition = 17%
Compound = COc1cc2c(cc1OC)C(=O)C(CC1CCN(Cc3ccccc3)CC1)C2 (centres unmarked); target = HTR6; assay = radioligand binding; setting = concentration not given, added: [3H]LSD; inhibition = 15.1%
Compound = Cc1ccc(C(=O)Nc2ccc3ccccc3c2)o1; target = Inward rectifier potassium channel 2 (KCNJ2, Homo sapiens, UniProt P63252); assay = ion current, inhibitor, whole-cell patch clamp; setting = 10 µM; inhibition = 9.96% and 2.35% and 4.1% and 4.28% and 3.13%
Compound = Cc1cc(C)c(C#N)c(SCC(=O)Nc2cccnc2)n1; target = NT5E membrane-bound form; assay = CD73 activity, inhibitor, malachite green phosphate; test system = MDA-MB-231; setting = 100 µM, added: 200 µM AMP; inhibition = -6 ± 7%
Compound = CC(C)c1noc2ncc(C(=O)c3ccccc3O)cc12; target = PACC1 (Homo sapiens, UniProt Q9H813); assay = ion current, whole-cell patch-clamp; setting = 10 µM; inhibition = 1.79%
Compound = COc1ccc2c(c1)C(=O)N(CCN1CCN(c3ccccc3OC)CC1)C2; target = HTR6; assay = radioligand binding; setting = concentration not given, added: [3H]LSD; inhibition = -15.8%
Compound = COC(=O)c1ccc(NC(=O)CCSc2nc(C)cc(C)c2C#N)cc1; target = NT5E membrane-bound form; assay = CD73 activity, inhibitor, malachite green phosphate; test system = MDA-MB-231; setting = 100 µM, added: 200 µM AMP; inhibition = 24 ± 8%
Compound = O=C(c1ccc(F)cc1)N(Cc1ccccc1)C1CCCCC1; target = Glutamate receptor ionotropic, NMDA 1 (Grin1, Rattus norvegicus, UniProt P35439); setting = 10 µM; inhibition = 4%
